# Measured values of several laboratories.
# Protocols differ between the studies behind these lines. Values joined by “and” are separate records of one study, mostly repeats; a detail may differ. ± marks the error that the study gave.
Substance,assay,test system,setting,IC50
N[C@@H](CO)C(=O)N[C@@H](Cc1c[nH]cn1)C(=O)N[C@@H](CCC(=O)O)C(=O)O,"platelet aggregation, inhibitor",rat platelet-rich plasma,"5 min preincubation, 37 °C, added: ADP 0.1 mM",214 µM
C=C(C)[C@@H]1CCC(C)=C[C@H]1c1c(O)cc(CCCCC)cc1O,"nicotine demethylation to nornicotine, inhibitor",pooled human liver microsomes,added: nicotine 500 µM,0.5 ± 0.11 µM
CN.Cc1c(C)c2c(c(C)c1O)CCC(C)(C(=O)O)O2 (stereo not shown),DPPH radical scavenging,methanol,"10 min, added: DPPH 70 µM",60 µM
C=C(C)[C@@H]1CCC(CO)=C[C@H]1c1c(O)cc(CCCCC)cc1O,"nicotine C-oxidation to cotinine, inhibitor",pooled human liver microsomes,added: nicotine 500 µM,2 ± 0.49 µM
C=C1[C@@H](O)C[C@H]2C(C)(C)CCC[C@]2(C)[C@H]1C[C@H](O)[C@H]1CC(=O)NC1=O,"translation, inhibitor, refers to: firefly luciferase reporter",Krebs-2 cell lysate,,~5 µM
CNC(C)C1CCC(N)C(OC2C(N)CC(N)C(OC3OCC(C)(O)C(NC)C3O)C2O)O1 (stereo not shown),"[14C]-phenylalanine incorporation, inhibitor, (UUU)12-directed cell-free translation",Mycolicibacterium smegmatis wild-type 70S ribosomes,"60 min, 37 °C",0.7 µM
HPVHHYQ-NH2 (C-amide),"in vitro translation, inhibitor, luciferase reporter","peptide, Escherichia coli S30 extract",37 °C,~600 µM
NC[C@@H]1O[C@H](O[C@H]2[C@@H](O)[C@H](O[C@@H]3[C@@H](O)[C@H](N)C[C@H](N)[C@H]3O[C@H]3O[C@H](CN)[C@@H](O)[C@H](O)[C@H]3N)O[C@@H]2CO)[C@H](N)[C@@H](O)[C@@H]1O,"prokaryotic translation, inhibitor, luciferase reporter",Escherichia coli S30 extract,,0.139 µM
NC[C@H]1O[C@H](O[C@H]2[C@H](O)[C@@H](O[C@H]3O[C@H](CO)[C@@H](O)[C@H](N)[C@H]3O)[C@H](N)C[C@@H]2N)[C@H](N)C[C@@H]1O,"luciferase synthesis, inhibitor, coupled transcription-translation","M. smegmatis 70S ribosomes, human hybrid","60 min, 37 °C",21 µM
O=C1C(Cl)=C(Nc2ccc(S(=O)(=O)Nc3ccccn3)cc2)C(=O)c2ccccc21,"cell viability, MTT","primary multiple myeloma cells, patients",72 h,1.6 ± 0.32 µM
O=C(O)CC[C@H](NC(=O)CNC(=O)[C@@H]1C[C@@H](O)CN1)C(=O)N[C@@H](Cc1ccccc1)C(=O)NCC(=O)O,"platelet aggregation, inhibitor",rat platelet-rich plasma,"5 min preincubation, 37 °C, added: ADP 0.1 mM",277 µM
NCCc1c[nH]c2ccc(O)cc12,"vasoconstriction, pressure myography",mouse third-order mesenteric arteries,added: 5-HT,0.1 µM
CN[C@@H]1[C@@H](O)[C@@H](O[C@@H]2[C@@H](O)[C@H](O[C@H]3O[C@H]([C@@H](C)O)[C@@H](O)[C@H](O)[C@H]3N)[C@@H](N)C[C@H]2N)OC[C@]1(C)O,"luciferase synthesis, inhibitor, coupled transcription-translation","M. smegmatis 70S ribosomes, human hybrid","60 min, 37 °C",0.8 µM
CCCCCC(O)C=CC=O (stereo not shown),"vesicular dopamine uptake, inhibitor",rat striatal synaptic vesicles,"15 min, added: [3H]dopamine",60 µM and 56 µM
CCCC[C@H]1C(=O)O[C@H](C)[C@H](NC(=O)c2cccc(NC=O)c2O)C(=O)O[C@@H](C)[C@@H]1OC(=O)CC(C)C,"succinate-dependent oxygen uptake, inhibitor",rat liver mitochondria,added: succinate 15 mM,0.0115 µM
NC[C@@H]1O[C@H](O[C@H]2[C@@H](O)[C@H](O[C@@H]3[C@@H](O)[C@H](N)C[C@H](N)[C@H]3O[C@H]3O[C@H](CO)[C@@H](O)[C@H](O)[C@H]3N)O[C@@H]2CO)[C@H](N)[C@@H](O)[C@@H]1O,"luciferase synthesis, inhibitor, coupled transcription-translation","M. smegmatis 70S ribosomes, human hybrid","60 min, 37 °C",4.7 µM

# Repeated from above:
Substance,assay,test system,setting,IC50
C=C(C)[C@@H]1CCC(C)=C[C@H]1c1c(O)cc(CCCCC)cc1O,"nicotine demethylation to nornicotine, inhibitor",pooled human liver microsomes,added: nicotine 500 µM,0.5 ± 0.11 µM
CN.Cc1c(C)c2c(c(C)c1O)CCC(C)(C(=O)O)O2 (stereo not shown),DPPH radical scavenging,methanol,"10 min, added: DPPH 70 µM",60 µM
